Experimental data from different studies.
Each line is one published result; not all experiments were run side by side. Values joined by “and” are separate records of one study, mostly repeats; a detail may differ. ± gives the spread as reported.
UniProt P37231, sequence (whole entry, looked up): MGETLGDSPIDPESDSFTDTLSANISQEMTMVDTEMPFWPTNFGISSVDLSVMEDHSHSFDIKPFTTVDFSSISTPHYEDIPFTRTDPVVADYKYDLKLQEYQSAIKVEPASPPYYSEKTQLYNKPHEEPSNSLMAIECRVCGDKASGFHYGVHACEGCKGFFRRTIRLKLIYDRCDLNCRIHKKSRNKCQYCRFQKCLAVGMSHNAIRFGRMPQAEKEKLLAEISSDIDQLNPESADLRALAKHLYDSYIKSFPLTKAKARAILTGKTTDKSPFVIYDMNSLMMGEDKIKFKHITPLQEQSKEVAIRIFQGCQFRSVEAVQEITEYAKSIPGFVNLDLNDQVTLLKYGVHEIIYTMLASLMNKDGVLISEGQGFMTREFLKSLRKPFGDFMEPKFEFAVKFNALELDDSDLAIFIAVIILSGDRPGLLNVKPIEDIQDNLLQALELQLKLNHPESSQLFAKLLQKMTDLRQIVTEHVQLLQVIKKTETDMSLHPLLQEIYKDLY

For N=C(N)NCCC[C@@H]1NC(=O)[C@H](CO)NC(=O)[C@@H](NC(=O)[C@H](CO)NC(=O)[C@H](CO)NC(=O)[C@H](Cc2c[nH]c3ccccc23)NC(=O)CNC(=O)[C@H](CO)NC(=O)[C@@H](N)Cc2c[nH]c3ccccc23)CSSC[C@@H](C(=O)NCC(=O)O)NC(=O)[C@H](CO)NC1=O, “volume of distribution (Vz)” read 337 L (patients, plasma; intravenous, 10 mg/kg, thrice weekly, median).
C=CC(=O)Nc1cc(Nc2nccc(-c3cn(C4CC4)c4ccccc34)n2)c(OC)cc1N(C)CCNC has a relative error of 2.1% (autosampler stability; rat plasma; 40 ng/mL, 4 h, 10 °C; baseline: nominal concentration).
The remaining compound of C=CC(=O)Nc1cc(Nc2nccc(-c3cn(C)c4ccccc34)n2)c(OC)cc1N(C)CCNC is reported as 103% (human, plasma; 10 d, -80 °C, high QC level).
CCCCN1C(=O)c2cccc3c(NCCCCCCN4CCOCC4)ccc(c23)C1=O: “fluorescence quantum yield” 0.99 (toluene).
The tumour-to-tissue ratio of Cc1cc(C)n(CCN(CCN)CCCCCCNC(=O)[C@@H](N)Cc2c[nH]cn2)n1.[99Tc+].[C-]#[O+].[C-]#[O+].[C-]#[O+] is reported as 3.8 (BALB/c nude mice A549 xenograft; intravenous, 15 min; baseline: tumour over muscle).
CCNCC#CCNc1ccnc2cc(Cl)ccc12 — result for “MS peak area”: 3.69e+06 a.u. (measured: compound as metabolite; monkey hepatocytes; 10 µM DAQ, 30 min; higher = more metabolite formed).
CN([O-])C(=O)CN1CCNCCN(CC(=O)N(C)[O-])CC1.[89Zr+4] gave a tracer uptake of 0.04 %ID/g (mouse, blood; intravenous, 24 h).
Under “cysteine adduct formation”, CC(C)(F)CC(NC(c1ccc(-c2ccc(S(C)(=O)=O)cc2)cc1)C(F)(F)F)C(=O)NCC#CBr (stereo not drawn) is recorded as 55% (PBS; 100 µM, 23 h, pH 7.45, 37 °C, added: cysteine 10 mM).
Under “relative change of HPLC peak area”, C[C@H](C(=O)O)c1ccc(-c2ccccc2)c(F)c1 is recorded as 1.27% (HPLC; solution; concentration not given, 10 h, room temperature).
Under “percent of control”, C=CC(=O)Nc1cccc(Cn2ncc3cnc(Nc4cnn(CCOC)c4)nc32)c1 is recorded as 100% (CSNK1E human; binding, KINOMEscan; 100 nM; lower = stronger binding).
COCC1CN(C2CCN(c3cc(OC)c(Nc4ncc(Br)c(Nc5ccc6c(c5P(C)(C)=O)OCCO6)n4)cc3C)CC2)C1 — result for “serious adverse events”: 16.7% (first-in-human trial; human; oral, 150 mg once daily; treatment-related).
The compound loss of C=Cc1c(C)c2cc3nc(c(CC(=O)O)c4[nH]c(cc5nc(cc1[nH]2)C(C)=C5CC)c(C)c4C(=O)O)[C@@H](CCC(=O)OCCOCCOCCOC)[C@@H]3C is reported as 21% (LC-MS; methanol-water 9:1; 4 h, pH 8.0).
Under “Tmax at first steady-state dose”, CN1CCC[C@]1(C)/C=C/S(=O)(=O)NC(=O)Nc1c2c(cc3c1C(O)CC3)CCC2 (stereo partly drawn) is recorded as 3 h (human, plasma; oral, 50 mg twice daily of parent drug, day 14, metabolite of dosed drug).
The tissue uptake of COc1cccc(OC)c1-c1cc(C(=O)NC2(C(=O)O)C3CC4CC(C3)CC2C4)nn1-c1ccc(C(=O)N(C)CCOCCN(C)C(=O)[C@H](CCCCNC(=O)[C@H](CC(C)C)NC(=O)C2OC2C(=O)O)NC(=O)CN2CCN(CC(=O)[O-])CCN(CC(=O)[O-])CCN(CC(=O)[O-])CC2)cc1C(C)C.[177Lu+3] (mixture of isomers) is reported as 0.4 %ID/g (mouse, HT-29 xenograft, heart; 24 h post injection).
Cc1ccc(CN2C(=O)/C(=N\c3ccc(Cl)cc3Br)c3ccccc32)cc1 gave a granulocytes of 48 ± 6% (mouse, blood; 100 mg/kg).
With C=C(NC(=O)c1csc(-c2nc3c(cc2O)-c2nc(cs2)C(=O)NC(C(C)O)C(=O)NC(=C(C)OC)c2nc(cs2)C(=O)NC2c4nc(cs4)C(=O)NC(COC(=O)c4c5c6c(cccc6n4O)COC(=O)C(OC4CC(C)(O)C(N(C)C)C(C)O4)C2OC5)c2nc-3cs2)n1)C(N)=O (stereo not drawn) the Tmax was 4.8 min (ICR mice, Streptococcus pneumoniae ATCC 49169 infected, immunocompromised, blood; intravenous, 32 mg/kg/day once daily).
The tumour-to-heart ratio of COc1cccc(OC)c1-c1cc(C(=O)NC2(C(=O)O)C3CC4CC(C3)CC2C4)nn1-c1ccc(C(=O)N(C)CCCN(C)CCCN(C)C(=O)[C@H](CCCCNC(=O)[C@H](CC(C)C)NC(=O)C2OC2C(=O)O)NC(=O)CN2CCN(CC(=O)[O-])CCN(CC(=O)[O-])CCN(CC(=O)[O-])CC2)cc1C(C)C.[177Lu+3] (mixture of isomers) is reported as 31.7 (mouse, HT-29 xenograft; 24 h post injection, biodistribution; baseline: tumour over heart uptake).
With C[N+](C)(CCOCCOCCOCCNC(=S)Nc1ccc(C[C@H]2CN(CC(=O)[O-])CCN(CC(=O)[O-])CCN2CC(=O)[O-])cc1)C[c-]1cccc1.[64Cu+2].[Fe+2].c1cc[cH-]c1 the tumour uptake was 0.4 ± 0.1 %ID/g (pretargeted biodistribution; nude mouse, BxPC-3 xenograft tumour; 24 h post injection, 216 h lag time).
Under “serious adverse events”, CC[C@H](C)[C@@H]1NC(=O)[C@H](Cc2ccc(O)cc2)NC(=O)CCCSC[C@@H](C(=O)N(CC(=O)N[C@@H](CC(C)C)C(=O)NCC(N)=O)Cc2ccc(F)cc2)NC(=O)[C@H](CC(N)=O)NC(=O)[C@H](CCC(N)=O)NC1=O is recorded as 0% (human; intranasal, 400 µg single dose).
The body weight of COc1cc(N2CCN(C(=O)C3CCCN3)CC2)ccc1Nc1ncc(Cl)c(Nc2ccccc2P(C)(C)=O)n1 (stereo not drawn) is reported as 24.4 g and 22.9 g and 22.1 g and 23.4 g and 22.3 g (nude mice, NCI-H3122 xenograft; oral, dose not given, day 5).
CCCSc1ccc(S(N)(=O)=O)cc1 has a pKa of 10.2 (sulfonamide group).
CCCN(C)c1cc(C(F)(F)F)nc(SCCC(=O)NCc2ccco2)n1 — result for “systolic blood pressure”: “no effect” (Wistar rat, anaesthetised with isoflurane; intraperitoneal, 25 mg/kg, 2 h; baseline: vehicle).
For CCCC[C@H](NC(=O)CNC(=O)CNC(=O)[C@H](CCCCNC(=O)C(C)c1ccc(CC(C)C)cc1)NC(=O)CN1CCN(CC(=O)O)CCN(CC(=O)O)CCN(CC(=O)O)CC1)C(=O)N[C@H]1CC(=O)NCCCC[C@@H](C(N)=O)NC(=O)[C@H](Cc2c[nH]c3ccccc23)NC(=O)[C@H](CCCNC(=N)N)NC(=O)[C@@H](Cc2ccccc2)NC(=O)[C@H](Cc2c[nH]cn2)NC1=O (stereo partly drawn) [lutetium-177 labelled], the tumour-to-tissue ratio was 10.9 (C57 mice, tumour; 2 h; baseline: blood).
COc1ccccc1NC(=O)OC1C(C)C(OC)C=COC2(C)Oc3c(C)c(O)c4c(c3C2=O)C2=NC3(CCN(CC(C)C)CC3)NC2=C(NC(=O)C(C)=CC=CC(C)C(O)C(C)C(O)C1C)C4=O (stereo not drawn) has an oral bioavailability of 22% (CD-1 mouse, female, plasma; oral, 10 mg/kg).
For Cc1nn(-c2nc3c(F)cc(F)cc3s2)c(O)c1C(c1ccc(C(F)(F)F)cc1)c1c(C)nn(-c2nc3c(F)cc(F)cc3s2)c1O, the Tlag was 0 h (ICR mouse, plasma; intraperitoneal, 10 mg/kg).
With CCC1C(COc2nccc3cc(C(N)=O)c(OC)cc23)NC(=O)C1F (stereo not drawn) the AUC(0-t) was 452 ± 454 ng·h/mL (ICR mice, plasma; intravenous, 1 mg/kg).
With COC(=O)C(C)n1nc(Cn2cc3cc(OCC[18F])c(Cl)cc3n2)c2ccccc2c1=O (racemic) the radiometabolite was ~30% and 30% (rat, brain; 45 min).
The tissue uptake of O=C(O)CCCOc1ccc([18F])cc1-c1cc(-c2ccccc2C(F)(F)F)n(-c2ccccc2)n1 is reported as 2.56 ± 0.49 %ID/g (mouse, muscle; intravenous, dose not given, 15 min).
For O=C(NS(=O)(=O)c1cccs1)c1cc2ccccc2n1Cc1ccc(Br)c2ccccc12, the AST was 110 U/L and 137 U/L and 150 U/L and 163 U/L and 151 U/L and 159 U/L (KM mouse, chronic hyperuricaemia model, serum; dose not given).
The SUV of O=C(Nc1cnccc1-c1ccc([18F])nc1)c1ccnc(NC(=O)C2CC2)c1 is reported as 0.078 (FVB/NJ mice, both sexes, brain; intravenous, 30 min, median, no P-gp inhibitor).
The concentration of CC(C)(C)C(=O)Nc1ccc2[nH]c(CN3CCC(N(CCCN4CCOCC4)CC4OC(n5cnc6c(N)ncnc65)C(O)C4O)CC3)nc2c1 (stereo not drawn) is reported as 2140 ng/mL (male Sprague-Dawley rat, plasma; intraperitoneal, 20 mg/kg, 15 min).
COc1cc(-c2cc(=O)c3ccc(OCCCn4c(Cl)nc5ccccc54)cc3o2)cc(OC)c1OC has an ALT of 55.1 ± 11.9 U/L (C57BL/J mice, healthy, serum; intravenous, 10 mg/kg every other day, 10 days).
The IC50 of Cc1c(Cc2cccc(OC(C)(C)C(=O)O)c2)c2ccc(C(=O)N[C@@H](C)c3ccc(C4CC4)cc3)cc2n1C is reported as 300 pM (Peroxisome proliferator-activated receptor gamma (PPARG, Homo sapiens, UniProt P37231); ligand displacement, TR-FRET).
The BUN of CCC[C@H]1CC[C@H](c2ccc(NC(=S)NC[C@@H]3[C@@H](O)[C@@H](O)[C@H]4[C@H](O)CCCN43)cc2)CC1 is reported as 22.4 ± 4.41 mg/dL (NOD-SCID mouse, serum; ip, 30 mg/kg).
O=C(Nc1cnccc1-c1ccc([18F])cc1)c1ccnc(NC(=O)C2CC2)c1 has an SUV of 0.17 (FVB/NJ mice (both sexes), heart; intravenous, dose not given, 120 min).
The dose-normalised Cmax of Cc1cc(NC(=O)[C@H](O)c2cc(F)cc(F)c2)ccc1-c1cnc(N)c(C(=O)NC(C)C)c1 is reported as 122 ng·kg/mL/mg (athymic nude Foxn1nu mouse, female, plasma; oral, 30 mg/kg).
With COc1cnc2cccc(N3CCc4c(cc(Cn5ccnc5)cc4-c4cn(C)nc4C(F)(F)F)C3=O)c2c1 the Cmax was 14100 ng/mL (male CD-1 mouse, plasma; oral, 50 mg/kg).
For CC[C@H](C)/C=C/C=C/C=C/C(O)=C/C(=O)C(F)(F)F, the hydrate fraction was 45% (UPLC-MS; PBS with DMSO; 100 µM, 1 h, pH 7.4, room temperature, 1% DMSO).
The recovery of C=CC(=O)Nc1cc(Nc2nccc(-c3c[nH]c4ccccc34)n2)c(OC)cc1N(C)CCN(C)C is reported as 89% (storage stability; human dried blood spots; 72 h, -80 °C, high QC level).
CC(C)(O)c1ncc([S@](N)(=O)=NC(=O)Nc2c3c(cc4c2CCC4)CCC3)s1: “subjects with adverse events” 13% (measured: Gastrointestinal disorders; healthy human volunteers; oral, 25 mg twice daily, 14 days, enteric-coated tablet).
O=C([O-])CN1CCN(CC(=O)[O-])CCN(CC(CCCc2ccccc2[N+](=O)[O-])N(CC(=O)[O-])CC(=O)[O-])CC1.[177Lu+3] (stereo not drawn) — result for “intact radiolabelled complex”: 100% (HPLC; human serum; 86 h, pH 7, 37 °C).
O=C(CCc1cn([C@@H]2O[C@H](C[18F])[C@@H](O)[C@H](O)[C@H]2O)nn1)Nc1ccc(-c2nnc(-c3ccccn3)nn2)nc1: “tumour to control tumour ratio” 8.5 (BALB/c nude mouse, LS174T xenograft; intravenous, dose not given, 1 h, added: CC49-TCO pretargeting).
For COC1CN([C@H]2CC[C@H]([C@@]3(C)Oc4c(Cl)cc(C(=O)NCc5c(SC)cc(C)[nH]c5=O)c(C)c4O3)CC2)C1, “log2 fold change” read 1.45 (RNA-seq, measured: SV2C; human, whole blood; dose not given, 24 h; baseline: pretreatment baseline).
For O=C(CN1CCN(CC(=O)NCc2ncccc2O)CCN(CC(=O)NCc2ncccc2O)CCN(CC(=O)NCc2ncccc2O)CC1)NCc1ncccc1O.[177Lu+3], the tissue uptake was 0.071 ± 0.024 % injected dose/g (Sprague-Dawley rat, blood; intravenous (tail vein), dose not given, 2 h).
The plasma concentration of Cc1cccc(Cn2ncc3c4cc(F)c(CN(C)C)cc4n(C)c3c2=O)n1 is reported as 3.46 ng/mL (Dutch-belted rabbit, plasma; intravitreal, 100 µM vitreous, 28.00 days).
